Measured values collected from several papers.
Each line is one published result; not all experiments were run side by side. “And” joins repeats or separate records; there may be more than shown. Numbers after ± are the reported error. In brackets after ≈: the same amount, converted by molar mass.
UniProt P21802, sequence (whole entry, looked up): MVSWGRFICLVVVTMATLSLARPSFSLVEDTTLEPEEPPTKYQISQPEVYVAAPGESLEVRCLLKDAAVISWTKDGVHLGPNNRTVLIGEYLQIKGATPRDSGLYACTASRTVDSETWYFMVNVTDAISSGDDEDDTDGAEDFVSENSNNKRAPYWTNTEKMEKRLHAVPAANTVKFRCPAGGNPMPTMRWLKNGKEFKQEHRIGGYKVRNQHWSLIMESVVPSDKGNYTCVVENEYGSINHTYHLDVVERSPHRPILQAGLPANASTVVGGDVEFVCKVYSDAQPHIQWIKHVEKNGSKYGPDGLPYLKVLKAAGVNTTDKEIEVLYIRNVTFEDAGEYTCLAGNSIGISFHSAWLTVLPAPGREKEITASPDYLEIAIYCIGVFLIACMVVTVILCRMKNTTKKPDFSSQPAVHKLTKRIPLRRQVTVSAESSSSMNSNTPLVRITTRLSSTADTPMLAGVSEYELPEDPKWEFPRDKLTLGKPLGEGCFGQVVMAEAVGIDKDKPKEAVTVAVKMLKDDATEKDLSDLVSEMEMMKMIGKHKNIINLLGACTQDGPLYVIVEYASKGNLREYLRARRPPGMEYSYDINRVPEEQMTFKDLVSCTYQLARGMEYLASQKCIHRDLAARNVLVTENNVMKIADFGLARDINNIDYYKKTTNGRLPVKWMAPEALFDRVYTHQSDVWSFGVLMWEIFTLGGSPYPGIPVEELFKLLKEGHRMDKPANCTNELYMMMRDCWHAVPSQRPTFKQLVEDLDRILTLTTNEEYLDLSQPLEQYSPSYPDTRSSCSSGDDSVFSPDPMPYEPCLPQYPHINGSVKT
UniProt P41586, sequence (whole entry, unmodified, looked up): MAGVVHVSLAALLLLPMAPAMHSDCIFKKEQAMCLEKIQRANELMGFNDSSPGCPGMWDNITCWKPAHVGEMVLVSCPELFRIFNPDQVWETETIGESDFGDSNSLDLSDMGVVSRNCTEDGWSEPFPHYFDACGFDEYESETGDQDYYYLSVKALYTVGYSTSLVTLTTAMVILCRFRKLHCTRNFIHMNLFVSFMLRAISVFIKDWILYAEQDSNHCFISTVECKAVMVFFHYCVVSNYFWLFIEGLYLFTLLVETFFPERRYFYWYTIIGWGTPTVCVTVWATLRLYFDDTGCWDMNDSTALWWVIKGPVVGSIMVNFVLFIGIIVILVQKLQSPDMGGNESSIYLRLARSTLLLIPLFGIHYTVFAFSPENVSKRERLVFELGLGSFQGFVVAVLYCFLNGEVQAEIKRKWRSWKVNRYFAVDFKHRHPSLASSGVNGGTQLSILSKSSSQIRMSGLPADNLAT
UniProt P27361, sequence (whole entry, looked up): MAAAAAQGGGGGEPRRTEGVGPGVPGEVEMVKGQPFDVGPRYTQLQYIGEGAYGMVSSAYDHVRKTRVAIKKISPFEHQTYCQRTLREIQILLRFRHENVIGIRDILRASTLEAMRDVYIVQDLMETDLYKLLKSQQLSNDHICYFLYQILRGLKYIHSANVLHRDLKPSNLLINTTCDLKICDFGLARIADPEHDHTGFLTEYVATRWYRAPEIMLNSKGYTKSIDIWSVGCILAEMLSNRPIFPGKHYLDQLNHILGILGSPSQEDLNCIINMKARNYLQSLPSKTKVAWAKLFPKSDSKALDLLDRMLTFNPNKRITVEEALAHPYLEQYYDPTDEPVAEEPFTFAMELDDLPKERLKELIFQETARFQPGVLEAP

CN1C(=O)C(C2C3=C(CC(C)(C)CC3=O)Oc3ccc([N+](=O)[O-])cc32)C(=O)N(C)C1=O (stereo not drawn)
mean lipid content (3T3-L1 preadipocytes; adipogenesis, Oil Red O staining; IC20, 14 days): 0.643 OD492

CN(C)[C@H]1C[C@@]23CC[C@@]4(O2)C(=CC[C@]2(C)[C@@H](c5ccc6ccncc6c5)CC[C@H]24)C=C3[C@@H](O)[C@@H]1O
inhibition (EPHB2 (Homo sapiens, UniProt P29323); ATP probe labelling, inhibitor, KiNativ profiling; 1 µM): 1.6%

Cc1cc(Oc2nc(N3CC[C@@H](c4ccncc4)C3)ncc2F)[nH]n1
normalised growth (Mycobacterium tuberculosis; THP-1, H37Rv non-replicating; 0.00949 µM, day 4): 5.66% and 9.43%

CS(C)(=O)=Nc1ccc(-c2ccc(-c3nc4cc(O[C@@H]5CO[C@H]6[C@@H]5OC[C@H]6O)[nH]c4cc3F)cc2)cc1
inhibition (FGFR2 (Homo sapiens, UniProt P21802); enzyme activity, inhibitor; 10 µM): 1%

CC[C@H](C)[C@H](NC(=O)[C@H](CO)NC(=O)[C@H](Cc1ccc(O)cc1)NC(=O)[C@H](Cc1ccc(O)cc1)NC(=O)[C@H](CC(N)=O)NC(=O)CNC(=O)[C@H](CO)NC(=O)[C@H](Cc1ccc(O)cc1)NC(=O)[C@H](CO)NC(=O)[C@H](CO)NC(=O)[C@H](CC(N)=O)NC(=O)COCCOCCNC(=O)CN1CCN(CC(=O)O)CCN(CC(=O)O)CCN(CC(=O)O)CC1)C(=O)N[C@@H](CC(C)C)C(N)=O [copper-64 labelled]
maximum pancreas uptake (dynamic PET; tamoxifen-induced PDAC mouse model, pancreas; 5.5 min, CLDN4-expressing tumours): 16.6 %IA/cc

N[C@H](C(=O)N1CCCC1)C1CCN(c2nccc3c(-c4ncc(Cl)cc4Cl)cccc23)CC1
inhibition (GABA-A receptor chloride channel; binding, radioligand binding; 10 µM): 14%

O=C(O)C(Cl)Cl.OCCN(CCO)CCO
herbicidal inhibition (Eclipta prostrata; 15 mg/mL, 21 days, pre-emergence, greenhouse): 0%

Cl.Oc1ccc(Nc2ccnc3cc(Cl)ccc23)cc1
inhibition (West Nile virus; viral replication, Rluc reporter replicon; Vero WNV replicon cells; 50 µM, 24 h): 57.2 ± 5.1%

CSCC[C@H](NC(=O)[C@H](CCC(N)=O)NC(=O)[C@H](CCCCN)NC(=O)[C@H](CCCNC(=N)N)NC(=O)[C@H](Cc1ccc(O)cc1)NC(=O)[C@H](CCCNC(=N)N)NC(=O)[C@H](CO)NC(=O)[C@H](Cc1ccc(O)cc1)NC(=O)[C@H](CO)NC(=O)[C@H](CC(=O)O)NC(=O)[C@@H](NC(=O)[C@@H](N)Cc1ccccc1)[C@@H](C)O)C(=O)N[C@@H](C)C(=O)N[C@H](C(=O)N[C@@H](CCCCN)C(=O)N[C@@H](CCCCN)C(=O)N[C@@H](Cc1ccc(O)cc1)C(=O)N[C@@H](CC(C)C)C(=O)N[C@@H](C)C(=O)N[C@@H](C)C(=O)N[C@H](C(=O)N[C@@H](CC(C)C)C(=O)NCC(=O)N[C@@H](CCCCN)C(=O)N[C@@H](CCCNC(=N)N)C(=O)N[C@@H](Cc1ccc(O)cc1)C(=O)N[C@@H](CCCCN)C(=O)N[C@@H](CCC(N)=O)C(=O)N[C@@H](CCCCn1cc(C[C@H](NC(=O)CNC(=O)[C@H](CO)NC(=O)[C@H](CCCNC(=N)N)NC(=O)[C@H](CO)NC(=O)[C@H](CC(C)C)NC(=O)[C@H](CC(C)C)NC(=O)CNC(=O)[C@H](C)NC(=O)[C@H](CC(C)C)NC(=O)[C@H](CCCNC(=N)N)NC(=O)[C@H](Cc2c[nH]cn2)NC(=O)[C@@H](NC(=O)[C@@H](N)C(C)C)[C@@H](C)O)C(=O)N[C@H](C(=O)N[C@H](C(=O)N[C@@H](CCCCN)C(=O)N[C@@H](CC(N)=O)C(=O)N[C@@H](CC(N)=O)C(=O)N[C@@H](Cc2ccccc2)C(=O)N[C@H](C(=O)N2CCC[C@H]2C(=O)N[C@H](C(=O)N[C@@H](CC(N)=O)C(=O)N[C@H](C(=O)NCC(=O)N[C@@H](CO)C(=O)N[C@@H](CCCCN)C(=O)N[C@@H](C)C(=O)N[C@@H](Cc2ccccc2)C(N)=O)C(C)C)[C@@H](C)O)C(C)C)C(C)C)C(C)C)nn1)C(=O)N[C@H](C(=O)N[C@@H](CCCCN)C(=O)N[C@@H](CC(N)=O)C(=O)N[C@@H](CCCCN)C(N)=O)C(C)C)C(C)C)C(C)C
Kb (ADCYAP1R1 (Homo sapiens, UniProt P41586, del89-109); cAMP accumulation, antagonist; with: PACAP-27): 0.288 µM

O=C1NC(=O)c2c1c1cc(F)c[n+]3c1c1c2c2cc(O)ccc2[n]1[Ru-4]312([N]=C=S)[S+]3CC[S+]1CC[S+]2CC3 (stereo not drawn)
remaining activity (Serine/threonine-protein kinase mTOR, with FKBP12 (MTOR, Homo sapiens, UniProt P42345); enzyme activity; 100 nM, human enzyme, with: 10 µM ATP; baseline: untreated): 121%

O=C(O)c1ccc(-c2nc(-c3ccccc3Cl)c3sccn23)cc1
reticulocytes (C57BL/6 mice, 5-fluorouracil treated; dose not given, day 26; baseline: RBC): 14.9% and 18.7% and 13.4%

CCCSC(SCCC)c1ccc(OCCNS(=O)(=O)c2ccc(C)cc2)c(OC)c1
EC50 (Tobacco mosaic virus; protective activity; plant in vivo): 654.5 ± 3.2 µg/mL (≈ 1350 µM)

CC(C)CC(C(=O)N1CC2(CC1C#N)C(=O)Nc1ccccc12)N(C)C(=O)c1cc2c(F)cc(F)c(F)c2[nH]1 (stereo not drawn)
inhibition (human coronavirus 229E; viral replication; MRC-5; 0.003125 µM): 87.8%

CC(C)[C@H]1NC(=O)C[C@H]2/C=C/CCSSC[C@@H](NC1=O)C(=O)N[C@H](Cc1cccc3ccccc13)C(=O)NCC(=O)O2
inhibition (MAPK3 (Homo sapiens, UniProt P27361); enzyme activity, inhibitor; 10 µM): 4.8%

CC[C@H](C)CCCCC(=O)N[C@@H](CCN)C(=O)N[C@H](C(=O)N[C@@H](CCN)C(=O)N[C@H]1CCNC(=O)[C@H]([C@@H](C)O)NC(=O)[C@H](CCN)NC(=O)[C@H](CCN)NC(=O)[C@H](CC(C)C)NC(=O)[C@@H](CC(C)C)NC(=O)[C@H](CCN)NC1=O)[C@@H](C)O
MIC fold change (Escherichia coli; daily serial passaging; ATCC 8739; highest sub-MIC, 9 days; baseline: initial MIC): 2.26

COc1cc(C(SC(C)C)SC(C)C)ccc1OCCNS(=O)(=O)c1ccc(Br)cc1
EC50 (tobacco mosaic virus; inactivation activity; in vivo plant): 63.8 ± 1.2 µg/mL (≈ 116 µM)

CC[C@@H]1CN2CCc3c([nH]c4cccc(OC)c34)[C@@H]2C[C@@H]1/C(=C\OC)C(=O)OC
IC50 (rabbit anti-mitragynine polyclonal IgG; antigen binding, competitor, competitive indirect ELISA; 5% methanol; 90 min antibody-standard, 60 min antibody-antigen incubation): 1.01 µg/mL and 0.99 µg/mL

COc1ccccc1-c1n[nH]c2nc(N[C@H]3CC[C@H](NS(=O)(=O)CC(C)C)CC3)ncc12
relative abundance (bead binding, competition bead pull-down, refers to: LINJ.21.2130; Leishmania donovani extract; 10 µM; baseline: vehicle): 2.05

CC(C)(C)C(=O)OCOP(=O)(OCOC(=O)C(C)(C)C)C1CCCN(O)C1=O (stereo not drawn)
log TGI (DU-145): > -4 log M

O=C1NC2(CC2)COc2ncc(F)cc2[C@H]2COCCN2c2ccn3ncc1c3n2
organ-to-brain weight ratio (Sprague-Dawley rat, male, testes; oral, 20 mg/kg/day, 4 weeks dosing, end of recovery): 163 ± 18.8%

Cc1cc(C(=O)Nc2nc3cccc(C)c3n2[C@H]2CCCCN(C(=O)/C=C/CN(C)C)C2)ccn1
survival (Trypanosoma brucei brucei; 2T1 wild type; 0.00114 µM): 93.4% and 77.5% and 91.4% and 86.6% and 99.5% and 101%

COc1ccccc1-c1n[nH]c2nc(NC3CCN(C(=O)Cc4ccc(F)cc4F)CC3)ncc12
relative abundance (bead binding, competition bead pull-down, refers to: LINJ.36.6960; Leishmania donovani extract; 10 µM; baseline: vehicle): 1.04

N=C(N)NCCC[C@@H]1NC(=O)[C@H](CCCCNC(=O)CCC(NC(=S)Nc2ccc(CC3CN(CC(=O)O)CCN(CC(=O)O)CCN(CC(=O)O)CCN3CC(=O)O)cc2)C(=O)NCCCC[C@@H]2NC(=O)[C@@H](Cc3ccc(O)cc3)NC(=O)[C@H](CC(=O)O)NC(=O)CNC(=O)[C@H](CCCNC(=N)N)NC2=O)NC(=O)[C@@H](Cc2ccc(O)cc2)NC(=O)[C@H](CC(=O)O)NC(=O)CNC1=O (stereo partly drawn) [scandium-44 labelled]
tissue uptake (PET imaging ROI; female athymic nude mice, U-87 MG xenograft, muscle; intravenous, 2 h): 0.35 ± 0.17 %ID/g

CCCCSC(SCCCC)c1ccc(OCCNS(=O)(=O)c2ccc(F)cc2)c(OC)c1
EC50 (Tobacco mosaic virus; protective activity; plant in vivo): 269 ± 3.7 µg/mL (≈ 522 µM)

CC(C)[C@H](NC(=O)[C@H](CCCNC(=N)N)NC(=O)[C@@H]1CCCN1C(=O)[C@@H](NC(=O)[C@H](C)NC(=O)[C@H](Cc1ccc(O)cc1)NC(=O)[C@H](CCC(N)=O)NC(=O)[C@H](CCCCN)NC(=O)[C@H](CCCNC(=N)N)NC(=O)[C@@H]1CCCN1C(=O)[C@H](CCC(=O)O)NC(=O)[C@@H](NC(=O)[C@H](C)N)[C@@H](C)O)[C@@H](C)O)C(=O)N[C@@H](Cc1ccccc1)C(=O)N[C@@H](Cc1c[nH]c2ccccc12)C(=O)N[C@H](C(=O)N[C@@H](CC(=O)O)C(=O)N[C@@H](C)C(=O)N1CCC[C@H]1C(=O)NCC(=O)NCCOCCOCCOCCOCCOCCOCCOCCOCCOCCOCCOCCOCCC(=O)N[C@@H](CS)C(N)=O)[C@@H](C)O
selectivity ratio (H2882 lung carcinoma; cell binding, phage binding, refers to: output/input phage; 10 min, 37 °C; baseline: control phage): 0.91 ± 0.39

CC(C)CC(O)(CC(C)C)c1cn(C(=O)N2CCCC2)nn1
protein level (mouse T-cells; SILAC proteomics, refers to: OXSR1; 1 nM, 6 h, unit not given; baseline: DMSO): 1.07

CC(C)[C@@H]1NC(=O)[C@@H]2CCCN2C(=O)[C@@H](C(C)C)NC(=O)[C@H]2CCCN2C(=O)[C@H](C(C)C)NC(=O)[C@@H]2CCCN2C(=O)[C@@H](C(C)C)NC(=O)[C@H]2CCCN2C(=O)[C@H](C(C)C)NC(=O)[C@@H]2CCCN2C(=O)[C@@H](C(C)C)NC(=O)[C@H]2CCCN2C1=O
bi-ionic potential (sheep lipid bilayer; 10 µM, pH 7.4, 23 °C, with: 0.1 M K+ vs Na chloride): -76 mV

A few entries again:
CCCSC(SCCC)c1ccc(OCCNS(=O)(=O)c2ccc(C)cc2)c(OC)c1
EC50 (Tobacco mosaic virus; protective activity; plant in vivo): 654.5 ± 3.2 µg/mL (≈ 1350 µM)

CC(C)CC(C(=O)N1CC2(CC1C#N)C(=O)Nc1ccccc12)N(C)C(=O)c1cc2c(F)cc(F)c(F)c2[nH]1 (stereo not drawn)
inhibition (human coronavirus 229E; viral replication; MRC-5; 0.003125 µM): 87.8%
